Assay results gathered from unrelated publications.
Lines come from different studies, so protocols differ. ± marks the error that the study gave.
Cell line: HL-60

SMILES	test	test system	setting	how to read	quantity	result
CC(=O)c1n[nH]c2ccc(-c3cnc4ccc(N(C)C5CCOCC5)nn34)cc12	IL6 release		24 h, together with: LPS 0.2 µg/mL		IC50	630 ± 60 nM
c1cc(N2CCCCC2)ccc1Nc1cc2ncc(OCC3CCNCC3)nc2cc1-c1ccc(N2CCCCC2)cc1	cell proliferation, XTT		7 days		EC50	3300 ± 40 nM
Cc1cc(C)nc(SCC(=O)Nc2ncc(Cc3cccc(OCc4cn(Cc5ccccc5C)nn4)c3)s2)n1	cell viability, MTS		10 µM		inhibition	16.6 ± 4.7%
O=C1NC(=NCc2cccs2)S/C1=C\c1ccc2ncccc2c1	cytotoxicity, MTS	NCI60 panel	acute myeloid leukaemia		IC50	1140 nM
C[C@@H]1CC2=C(CN1Cc1cccc(C#N)c1)C(=O)N(Cc1ccc(F)c(C(F)(F)F)c1)C1=NCCN12	cell growth, MTS				IC50	12.8 ± 1.15 nM
COc1ccc(C(=O)CC(=O)c2ccc(C(C)(C)C)cc2)cc1				baseline: dark IC50 over light IC50	phototoxicity index	1
C=Cc1c(C)c2cc3nc(c4c5[nH]c(cc6nc(cc1[nH]2)C(C)=C6CC)c(C)c5C(=O)C4)[C@@H](CCC(=O)O)[C@@H]3C	metabolic activity, XTT		1 h, dark		ED50	1600 nM
Fc1ccc(Oc2ccc(Nc3ccc4ncc(OCC5CCNCC5)nc4c3)cc2)cc1	cell proliferation, XTT		7 days		EC50	660 ± 130 nM
Cc1cc(C)n(C(=S)[S][Au][PH](CCCCCC[PH]([Au][S]C(=S)n2nc(C)cc2C)(c2ccccc2)c2ccccc2)(c2ccccc2)c2ccccc2)n1	cell growth, NCI-60 screen		leukemia		log10 TGI	-6.19
C[C@@H]1CC2=C(CN1Cc1cccc(C#N)c1)C(=O)N(Cc1ccc3ccccc3c1)C1=NCCN12	cell growth, MTS				IC50	25.3 ± 0.48 nM
O=C(c1ccc2[nH]ccc2c1)N1CCN(S(=O)(=O)c2ccc3[nH]c(=O)oc3c2)CC1	NUDT15 inhibitor, mass spectrometry		10 µM, 16 h, together with: 6-thioguanine 0.5 µM	higher = more incorporation	6-thio-dGTP in DNA	1190 a.u.
c1cc(N2CCCC2)ccc1-c1cc2ncc(OCC3CCNCC3)nc2cc1-c1ccc(N2CCCC2)cc1	cell proliferation, XTT		7 days		EC50	5400 ± 130 nM
CCn1cc(-c2cc(Cn3ccoc3=N)cc3c2CCN([C@@H](C)c2cc(OC)ccn2)C3=O)c(C(F)(F)F)n1	cell growth, inhibitor		120 h		EC50	24 nM
Sc1ncnc2nc[nH]c12	radioactive counts		2 µM, 14C-labelled compound	higher = more incorporation	DNA radioactivity	299 a.u.
COc1cnc2cccc(N3CCc4c(cc(Cn5ccnc5C)cc4-c4cn(C)nc4C(F)(F)F)C3=O)c2c1	cell growth, inhibitor		120 h		EC50	13000 nM
Cc1ccc(Cn2cc(COc3cccc(Cc4cnc(NC(=O)CSc5nc(C)cc(C)n5)s4)c3)nn2)cc1	cell viability, MTS		10 µM		inhibition	7.7 ± 2%
Cc1cc(Br)ccc1CN1C(=O)C2=C(C[C@@H](C)N(Cc3cccc(C#N)c3)C2)N2CCN=C12	cell growth, MTS				IC50	34.4 ± 2.13 nM
